Published values gathered from unrelated publications.
Each line is one published result; not all experiments were run side by side. Substitutions count along the parent as printed.
B1: SLCO1B1 (Homo sapiens, UniProt Q9Y6L6); chain MDQNQHLNKTAEAQPSENKKTRYCNGLKMFLAALSLSFIAKTLGAIIMKSSIIHIERRFEISSSLVGFIDGSFEIGNLLVIVFVSYFGSKLHRPKLIGIGCFIMGIGGVLTALPHFFMGYYRYSKETNINSSENSTSTLSTCLINQILSLNRASPEIVGKGCLKESGSYMWIYVFMGNMLRGIGETPIVPLGLSYIDDFAKEGHSSLYLGILNAIAMIGPIIGFTLGSLFSKMYVDIGYVDLSTIRITPTDSRWVGAWWLNFLVSGLFSIISSIPFFFLPQTPNKPQKERKASLSLHVLETNDEKDQTANLTNQGKNITKNVTGFFQSFKSILTNPLYVMFVLLTLLQVSSYIGAFTYVFKYVEQQYGQPSSKANILLGVITIPIFASGMFLGGYIIKKFKLNTVGIAKFSCFTAVMSLSFYLLYFFILCENKSVAGLTMTYDGNNPVTSHRDVPLSYCNSDCNCDESQWEPVCGNNGITYISPCLAGCKSSSGNKKPIVFYNCSCLEVTGLQNRNYSAHLGECPRDDACTRKFYFFVAIQVLNLFFSALGGTSHVMLIVKIVQPELKSLALGFHSMVIRALGGILAPIYFGALIDTTCIKWSTNNCGTRGSCRTYNSTSFSRVYLGLSSMLRVSSLVLYIILIYAMKKKYQEKDINASENGSVMDEANLESLNKNKHFVPSAGADSETHC
P1: Tif32 791-964 (Saccharomyces cerevisiae); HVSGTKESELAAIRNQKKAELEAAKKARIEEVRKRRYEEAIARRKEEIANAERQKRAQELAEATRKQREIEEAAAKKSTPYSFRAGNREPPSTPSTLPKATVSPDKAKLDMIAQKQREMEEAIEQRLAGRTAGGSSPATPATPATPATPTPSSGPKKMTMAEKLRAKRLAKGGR; partner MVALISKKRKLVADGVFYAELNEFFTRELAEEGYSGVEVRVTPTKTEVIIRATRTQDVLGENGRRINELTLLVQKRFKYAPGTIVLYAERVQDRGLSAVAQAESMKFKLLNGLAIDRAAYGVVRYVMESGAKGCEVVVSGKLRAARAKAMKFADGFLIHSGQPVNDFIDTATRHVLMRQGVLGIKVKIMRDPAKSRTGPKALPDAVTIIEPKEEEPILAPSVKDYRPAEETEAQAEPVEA
P2: Jph2 N-terminal (Mus musculus); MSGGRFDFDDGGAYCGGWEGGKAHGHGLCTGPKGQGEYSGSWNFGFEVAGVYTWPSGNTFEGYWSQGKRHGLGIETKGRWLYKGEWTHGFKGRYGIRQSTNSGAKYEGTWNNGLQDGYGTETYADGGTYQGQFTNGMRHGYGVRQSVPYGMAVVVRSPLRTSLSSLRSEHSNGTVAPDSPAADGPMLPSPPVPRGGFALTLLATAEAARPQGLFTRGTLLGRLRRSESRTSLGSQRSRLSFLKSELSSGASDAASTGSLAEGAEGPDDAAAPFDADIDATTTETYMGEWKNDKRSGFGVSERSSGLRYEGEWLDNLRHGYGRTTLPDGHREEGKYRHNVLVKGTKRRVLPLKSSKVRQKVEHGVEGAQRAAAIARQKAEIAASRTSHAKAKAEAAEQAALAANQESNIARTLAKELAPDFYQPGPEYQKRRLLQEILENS
P3: RORγt (mouse); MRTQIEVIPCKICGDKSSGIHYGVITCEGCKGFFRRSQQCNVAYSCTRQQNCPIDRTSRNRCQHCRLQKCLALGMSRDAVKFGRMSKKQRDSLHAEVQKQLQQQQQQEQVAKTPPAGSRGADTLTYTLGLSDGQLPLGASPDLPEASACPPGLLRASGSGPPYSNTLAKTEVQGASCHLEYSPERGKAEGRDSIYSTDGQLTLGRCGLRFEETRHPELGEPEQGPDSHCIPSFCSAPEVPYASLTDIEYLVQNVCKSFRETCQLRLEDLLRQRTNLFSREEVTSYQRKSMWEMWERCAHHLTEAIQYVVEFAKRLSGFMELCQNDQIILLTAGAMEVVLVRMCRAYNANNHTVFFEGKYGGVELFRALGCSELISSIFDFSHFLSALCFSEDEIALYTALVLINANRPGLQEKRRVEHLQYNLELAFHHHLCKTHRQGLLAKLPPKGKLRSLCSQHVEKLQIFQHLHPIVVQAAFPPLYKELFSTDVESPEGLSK
Sequence of UniProt Q92887 (whole entry, looked up): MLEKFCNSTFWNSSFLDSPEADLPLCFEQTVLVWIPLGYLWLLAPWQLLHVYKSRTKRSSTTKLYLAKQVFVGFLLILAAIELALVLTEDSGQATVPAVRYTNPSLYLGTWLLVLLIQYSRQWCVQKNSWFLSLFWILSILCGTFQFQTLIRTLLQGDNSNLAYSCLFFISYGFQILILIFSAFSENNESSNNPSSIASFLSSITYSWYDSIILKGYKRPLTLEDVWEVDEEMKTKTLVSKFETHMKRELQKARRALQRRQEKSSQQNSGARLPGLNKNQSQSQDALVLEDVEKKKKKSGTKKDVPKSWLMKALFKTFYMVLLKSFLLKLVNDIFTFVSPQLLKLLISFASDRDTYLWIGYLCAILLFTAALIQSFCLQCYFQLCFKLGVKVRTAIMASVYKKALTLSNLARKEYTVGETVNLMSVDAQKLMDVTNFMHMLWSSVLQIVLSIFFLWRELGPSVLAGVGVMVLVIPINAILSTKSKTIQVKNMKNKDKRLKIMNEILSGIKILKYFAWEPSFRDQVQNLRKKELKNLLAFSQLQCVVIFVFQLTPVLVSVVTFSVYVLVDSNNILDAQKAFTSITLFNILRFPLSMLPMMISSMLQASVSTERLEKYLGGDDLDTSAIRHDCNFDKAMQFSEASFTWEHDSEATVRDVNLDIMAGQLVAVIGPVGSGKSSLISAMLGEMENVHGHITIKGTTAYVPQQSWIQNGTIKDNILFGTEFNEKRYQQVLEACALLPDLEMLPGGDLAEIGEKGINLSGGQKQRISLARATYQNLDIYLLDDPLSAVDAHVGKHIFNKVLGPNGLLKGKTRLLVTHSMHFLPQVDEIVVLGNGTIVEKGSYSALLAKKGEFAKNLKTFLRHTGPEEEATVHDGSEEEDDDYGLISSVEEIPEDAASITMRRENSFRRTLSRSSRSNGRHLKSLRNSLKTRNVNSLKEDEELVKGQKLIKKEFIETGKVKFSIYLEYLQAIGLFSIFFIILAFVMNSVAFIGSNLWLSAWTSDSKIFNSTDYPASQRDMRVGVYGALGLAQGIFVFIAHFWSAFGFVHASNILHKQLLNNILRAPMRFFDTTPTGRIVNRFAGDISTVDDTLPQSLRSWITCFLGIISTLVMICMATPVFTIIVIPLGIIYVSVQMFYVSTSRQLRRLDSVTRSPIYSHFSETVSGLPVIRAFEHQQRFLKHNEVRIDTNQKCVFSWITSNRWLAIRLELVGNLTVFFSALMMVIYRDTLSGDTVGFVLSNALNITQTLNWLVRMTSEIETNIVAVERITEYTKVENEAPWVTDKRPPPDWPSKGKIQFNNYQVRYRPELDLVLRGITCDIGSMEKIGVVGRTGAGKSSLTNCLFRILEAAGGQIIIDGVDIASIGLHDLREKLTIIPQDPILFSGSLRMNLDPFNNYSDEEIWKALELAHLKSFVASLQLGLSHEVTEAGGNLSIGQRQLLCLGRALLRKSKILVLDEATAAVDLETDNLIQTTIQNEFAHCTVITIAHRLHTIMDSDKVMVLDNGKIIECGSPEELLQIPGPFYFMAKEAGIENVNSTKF
Sequence of UniProt Q16637 (whole entry, looked up): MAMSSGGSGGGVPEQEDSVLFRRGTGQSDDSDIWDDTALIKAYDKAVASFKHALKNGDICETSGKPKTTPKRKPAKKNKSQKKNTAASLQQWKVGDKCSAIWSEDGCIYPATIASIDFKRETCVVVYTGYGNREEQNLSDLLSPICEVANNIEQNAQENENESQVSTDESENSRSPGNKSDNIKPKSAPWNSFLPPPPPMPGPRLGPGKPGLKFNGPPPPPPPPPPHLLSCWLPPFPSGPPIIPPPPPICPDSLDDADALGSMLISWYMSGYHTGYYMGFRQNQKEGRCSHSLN

| Substance | target or system | assay | test system | setting | how to read | quantity | result |
| --- | --- | --- | --- | --- | --- | --- | --- |
| B1 (SLCO1B1) | O=C(c1ccc(OCCN2CCCCC2)cc1)c1c(-c2ccc(O)cc2)sc2cc(O[C@@H]3O[C@H](C(=O)O)[C@@H](O)[C@H](O)[C@H]3O)ccc12 | steady-state kinetics | HEK293 cells | pH 7.4, 37 °C | – | Vmax | 1.26e-05 µmol/min/mg |
| P1 E162A K163A L164A R165A K167A R168A L169A | rps3 R116D (Saccharomyces cerevisiae) | GST pull-down | – | – | baseline: unchanged protein, higher = more binding | relative binding | 26% |
| BICD2-miniTurboID C-terminus R747C (Homo sapiens) | CSPP1 (Homo sapiens) | proximity biotinylation, western blot | – | 500 µM, 40 minutes, read off a plot | baseline: unchanged protein, higher = more binding | relative binding | 2.4 |
| GGGCUCACCACGCACGGUGCGUGCUUUCCGUUGUGUUUGGCCUCACCACGGCAAGCU | SMN1, full length (human, UniProt Q16637, residues 1-294) | nitrocellulose filter binding | RNA, in vitro | 100 nM, whole RNA, constant flanks, single concentration, ends assumed | baseline: round 9 selected pool, higher = stronger binding | relative RNA binding | 87 % of pool |
| P2 R160E S165F | CaV1.2 (Mus musculus) | ITC | – | – | baseline: unchanged protein | relative binding | 1.3 |
| P3 S316D | ITCH | GST pull-down | – | – | baseline: unchanged protein | relative binding | 2.4 |
| ABCC2 (Homo sapiens, UniProt Q92887) | O=C(c1ccc(OCCN2CCCCC2)cc1)c1c(-c2ccc(O[C@@H]3O[C@H](C(=O)O)[C@@H](O)[C@H](O)[C@H]3O)cc2)sc2cc(O[C@@H]3O[C@H](C(=O)O)[C@@H](O)[C@H](O)[C@H]3O)ccc12 | steady-state kinetics | Sf9 vesicles | pH 7, 37 °C, not purified, added: ATP | – | Vmax | 0.00151 µmol/min/mg |

For quick reference, copied from above:
| Substance | target or system | assay | test system | setting | how to read | quantity | result |
| --- | --- | --- | --- | --- | --- | --- | --- |
| ABCC2 (Homo sapiens, UniProt Q92887) | O=C(c1ccc(OCCN2CCCCC2)cc1)c1c(-c2ccc(O[C@@H]3O[C@H](C(=O)O)[C@@H](O)[C@H](O)[C@H]3O)cc2)sc2cc(O[C@@H]3O[C@H](C(=O)O)[C@@H](O)[C@H](O)[C@H]3O)ccc12 | steady-state kinetics | Sf9 vesicles | pH 7, 37 °C, not purified, added: ATP | – | Vmax | 0.00151 µmol/min/mg |
